Measured values of several laboratories.
Values joined by “and” are separate records of one study, mostly repeats; a detail may differ. ± marks the error that the study gave.
HLA class I histocompatibility antigen, A alpha chain allele A*01:01: HLA class I histocompatibility antigen, A alpha chain, allele A*01:01 (Homo sapiens, UniProt P04439)
HLA class I histocompatibility antigen, A alpha chain allele A*02:01: HLA class I histocompatibility antigen, A alpha chain, allele A*02:01 (Homo sapiens, UniProt P04439)
UniProt P48067, sequence (whole entry, looked up): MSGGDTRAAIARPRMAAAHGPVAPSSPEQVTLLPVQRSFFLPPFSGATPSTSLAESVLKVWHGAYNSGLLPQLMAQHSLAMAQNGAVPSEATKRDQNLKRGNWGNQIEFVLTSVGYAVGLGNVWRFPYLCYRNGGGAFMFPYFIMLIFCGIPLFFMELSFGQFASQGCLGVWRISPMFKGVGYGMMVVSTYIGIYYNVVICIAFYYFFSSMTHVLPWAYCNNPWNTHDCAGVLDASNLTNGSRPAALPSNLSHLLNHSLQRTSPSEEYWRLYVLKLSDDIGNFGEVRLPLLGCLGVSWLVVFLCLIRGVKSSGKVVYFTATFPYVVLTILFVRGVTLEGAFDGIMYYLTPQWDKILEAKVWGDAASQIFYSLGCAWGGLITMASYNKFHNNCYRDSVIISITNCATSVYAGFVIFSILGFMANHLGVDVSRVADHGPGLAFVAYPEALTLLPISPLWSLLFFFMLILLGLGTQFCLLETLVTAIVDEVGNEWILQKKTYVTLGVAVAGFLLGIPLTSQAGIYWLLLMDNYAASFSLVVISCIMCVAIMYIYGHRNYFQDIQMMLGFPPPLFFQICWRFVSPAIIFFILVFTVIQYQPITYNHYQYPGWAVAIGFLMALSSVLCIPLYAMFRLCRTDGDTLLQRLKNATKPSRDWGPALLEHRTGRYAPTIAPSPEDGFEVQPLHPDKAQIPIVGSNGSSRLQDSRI
UniProt Q64663, sequence (whole entry, unmodified, looked up): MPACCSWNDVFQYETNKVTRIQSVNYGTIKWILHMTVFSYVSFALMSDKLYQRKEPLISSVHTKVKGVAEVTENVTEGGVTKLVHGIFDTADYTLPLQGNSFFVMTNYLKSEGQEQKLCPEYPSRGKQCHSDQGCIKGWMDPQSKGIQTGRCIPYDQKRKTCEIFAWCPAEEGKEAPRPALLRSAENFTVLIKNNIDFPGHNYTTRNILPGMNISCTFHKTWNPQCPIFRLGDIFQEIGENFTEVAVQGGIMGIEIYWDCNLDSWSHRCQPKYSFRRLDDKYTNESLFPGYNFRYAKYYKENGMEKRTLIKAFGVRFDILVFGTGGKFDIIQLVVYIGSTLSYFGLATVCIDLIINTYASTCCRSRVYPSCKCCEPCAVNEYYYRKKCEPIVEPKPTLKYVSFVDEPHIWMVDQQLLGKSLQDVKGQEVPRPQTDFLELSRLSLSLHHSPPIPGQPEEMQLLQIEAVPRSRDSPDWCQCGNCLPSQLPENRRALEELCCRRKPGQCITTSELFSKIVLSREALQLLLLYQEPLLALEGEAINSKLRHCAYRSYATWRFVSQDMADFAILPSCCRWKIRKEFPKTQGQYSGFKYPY
UniProt Q15084, sequence (whole entry, looked up): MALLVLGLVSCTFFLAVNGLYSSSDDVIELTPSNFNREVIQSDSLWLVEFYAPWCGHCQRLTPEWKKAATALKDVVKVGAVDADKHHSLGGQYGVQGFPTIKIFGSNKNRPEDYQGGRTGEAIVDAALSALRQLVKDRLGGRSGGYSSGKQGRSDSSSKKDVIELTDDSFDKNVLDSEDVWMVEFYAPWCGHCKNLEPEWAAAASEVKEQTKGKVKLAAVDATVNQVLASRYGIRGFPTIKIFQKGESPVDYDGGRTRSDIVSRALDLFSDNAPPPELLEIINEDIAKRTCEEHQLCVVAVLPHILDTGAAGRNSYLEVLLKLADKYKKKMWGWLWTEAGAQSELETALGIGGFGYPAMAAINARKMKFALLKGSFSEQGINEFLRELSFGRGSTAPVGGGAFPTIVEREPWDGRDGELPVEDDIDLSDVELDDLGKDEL
UniProt Q14160, sequence (whole entry, looked up): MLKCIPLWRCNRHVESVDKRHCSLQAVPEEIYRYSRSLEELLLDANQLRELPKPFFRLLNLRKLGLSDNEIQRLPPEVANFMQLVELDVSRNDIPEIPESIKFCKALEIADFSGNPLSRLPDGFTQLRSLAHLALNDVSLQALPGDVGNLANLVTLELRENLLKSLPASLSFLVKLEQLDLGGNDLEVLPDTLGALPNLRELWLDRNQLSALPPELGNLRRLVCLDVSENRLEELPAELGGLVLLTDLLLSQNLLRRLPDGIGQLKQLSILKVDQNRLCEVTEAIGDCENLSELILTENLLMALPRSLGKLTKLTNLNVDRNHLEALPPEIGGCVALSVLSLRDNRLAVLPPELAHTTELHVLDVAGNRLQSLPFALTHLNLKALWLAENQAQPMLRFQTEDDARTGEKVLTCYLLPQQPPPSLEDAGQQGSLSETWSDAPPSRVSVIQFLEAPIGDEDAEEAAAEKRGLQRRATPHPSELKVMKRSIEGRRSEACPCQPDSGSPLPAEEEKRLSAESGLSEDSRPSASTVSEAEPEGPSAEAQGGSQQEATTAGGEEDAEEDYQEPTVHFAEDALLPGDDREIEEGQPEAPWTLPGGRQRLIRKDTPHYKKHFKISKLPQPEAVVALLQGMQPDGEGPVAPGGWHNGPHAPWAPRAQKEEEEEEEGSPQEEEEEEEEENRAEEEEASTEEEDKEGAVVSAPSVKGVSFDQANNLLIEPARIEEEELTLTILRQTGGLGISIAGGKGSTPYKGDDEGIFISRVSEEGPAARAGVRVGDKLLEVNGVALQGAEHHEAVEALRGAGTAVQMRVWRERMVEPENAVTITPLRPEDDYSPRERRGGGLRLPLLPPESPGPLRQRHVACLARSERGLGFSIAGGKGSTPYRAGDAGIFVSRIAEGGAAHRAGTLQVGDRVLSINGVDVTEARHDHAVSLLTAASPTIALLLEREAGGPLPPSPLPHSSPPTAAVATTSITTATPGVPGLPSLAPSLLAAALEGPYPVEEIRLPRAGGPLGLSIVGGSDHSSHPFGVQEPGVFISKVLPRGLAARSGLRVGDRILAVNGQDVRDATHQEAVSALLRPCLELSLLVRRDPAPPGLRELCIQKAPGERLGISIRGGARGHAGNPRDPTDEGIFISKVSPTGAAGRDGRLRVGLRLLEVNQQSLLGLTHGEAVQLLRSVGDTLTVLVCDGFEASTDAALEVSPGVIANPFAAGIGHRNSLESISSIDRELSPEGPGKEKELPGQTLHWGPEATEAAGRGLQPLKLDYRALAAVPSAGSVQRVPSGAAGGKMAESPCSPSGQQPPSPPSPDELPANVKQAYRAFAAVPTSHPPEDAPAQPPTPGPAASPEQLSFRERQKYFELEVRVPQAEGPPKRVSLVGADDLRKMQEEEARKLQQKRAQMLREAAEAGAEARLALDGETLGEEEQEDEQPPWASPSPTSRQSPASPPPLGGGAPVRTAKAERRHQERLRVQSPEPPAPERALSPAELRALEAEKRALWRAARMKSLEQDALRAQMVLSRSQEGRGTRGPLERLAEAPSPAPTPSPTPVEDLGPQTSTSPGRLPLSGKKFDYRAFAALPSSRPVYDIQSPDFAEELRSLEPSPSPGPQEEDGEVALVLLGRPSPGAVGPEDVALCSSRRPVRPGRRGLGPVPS
UniProt Q6PJP8, sequence (whole entry, looked up): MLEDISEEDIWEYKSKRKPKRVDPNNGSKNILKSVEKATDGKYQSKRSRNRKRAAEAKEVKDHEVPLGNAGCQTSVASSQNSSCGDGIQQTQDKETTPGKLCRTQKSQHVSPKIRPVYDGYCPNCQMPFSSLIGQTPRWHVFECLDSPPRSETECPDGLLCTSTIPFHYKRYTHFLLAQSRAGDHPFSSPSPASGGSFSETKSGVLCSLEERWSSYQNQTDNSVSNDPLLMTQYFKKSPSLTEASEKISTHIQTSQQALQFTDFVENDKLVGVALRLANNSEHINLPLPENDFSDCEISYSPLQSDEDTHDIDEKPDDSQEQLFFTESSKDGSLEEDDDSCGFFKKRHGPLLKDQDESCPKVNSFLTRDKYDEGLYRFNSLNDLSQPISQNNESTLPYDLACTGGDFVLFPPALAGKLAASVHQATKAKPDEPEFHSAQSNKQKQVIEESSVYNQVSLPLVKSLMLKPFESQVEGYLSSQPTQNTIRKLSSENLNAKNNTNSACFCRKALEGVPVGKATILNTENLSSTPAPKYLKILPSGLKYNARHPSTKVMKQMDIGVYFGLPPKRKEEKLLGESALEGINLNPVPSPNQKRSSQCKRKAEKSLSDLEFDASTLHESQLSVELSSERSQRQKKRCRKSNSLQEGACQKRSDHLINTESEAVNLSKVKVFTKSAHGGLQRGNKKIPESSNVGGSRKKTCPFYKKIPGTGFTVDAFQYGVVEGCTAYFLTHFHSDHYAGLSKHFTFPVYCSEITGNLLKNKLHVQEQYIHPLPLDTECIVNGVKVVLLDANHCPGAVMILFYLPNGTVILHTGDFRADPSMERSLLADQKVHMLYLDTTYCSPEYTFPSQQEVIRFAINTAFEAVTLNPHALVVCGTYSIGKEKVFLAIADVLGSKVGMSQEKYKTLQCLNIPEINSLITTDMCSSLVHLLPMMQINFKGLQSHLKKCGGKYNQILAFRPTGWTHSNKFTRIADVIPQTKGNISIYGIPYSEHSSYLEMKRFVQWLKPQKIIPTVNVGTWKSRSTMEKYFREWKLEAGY
UniProt P50613, sequence (whole entry, looked up): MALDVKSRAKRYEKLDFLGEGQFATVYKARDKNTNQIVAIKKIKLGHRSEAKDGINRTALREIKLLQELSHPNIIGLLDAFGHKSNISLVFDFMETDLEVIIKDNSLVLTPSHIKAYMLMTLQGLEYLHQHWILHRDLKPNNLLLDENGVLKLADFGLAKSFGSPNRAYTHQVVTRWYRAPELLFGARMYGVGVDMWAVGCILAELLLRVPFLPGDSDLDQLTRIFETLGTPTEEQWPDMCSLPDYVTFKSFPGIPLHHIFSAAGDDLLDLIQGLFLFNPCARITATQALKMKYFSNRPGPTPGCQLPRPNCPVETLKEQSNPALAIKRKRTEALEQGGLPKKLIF

Under “rate constant k-2”, `11-deoxycorticosterone` is recorded as 35.3 min⁻¹ (CYP11B2 (human); substrate binding, stopped-flow kinetic modelling; 4-state branched induced-fit model, with: equimolar adrenodoxin).
`6-carboxyfluorescein` has an uptake of 69% and 67.3% and 63.3% (Solute carrier organic anion transporter family member 2A1 (SLCO2A1, Homo sapiens, UniProt Q92959, R445C); compound uptake, substrate; HEK293F expressing SLCO2A1 R445C; 50 µM; relative to: wild type).
`SYLSGANLNF` has a binding of 92% (human HLA-A24 (A*2401); peptide-MHC binding, iTopia initial binding; peptide, plate-bound HLA heavy chain; 11 µM, 18 h, 21 °C; relative to: allele-matched positive control peptide).
`LMPFGSLLDY`: “half-life of peptide-HLA complex” 24 min (HLA class I histocompatibility antigen, A alpha chain allele A*01:01; complex stability, off-rate; peptide; 37 °C).
Under “normalised SPR binding response”, `SEKHFRETEV` is recorded as 232 normalised RU (human SCRIB PDZ3-4 tandem (MBP fusion); surface plasmon resonance; peptide; concentration not given; higher = stronger binding).
`QLMPFGSLL` gave a binding score of 0.5% (HLA class I histocompatibility antigen, A alpha chain allele A*01:01; conformational ELISA; peptide; concentration not given; relative to: positive control peptide, direction not given).
`methyl-β-cyclodextrin`: “glycine uptake rate” 57 a.u. and 43.5 a.u. and 47.5 a.u. and 47.9 a.u. and 43 a.u. (Sodium- and chloride-dependent glycine transporter 1 (SLC6A9, Homo sapiens, UniProt P48067); transport activity, [3H]glycine uptake; 3.5 mg/mL, 1 min, with: glycine 300 µM; higher = more transport).
`PRAEAEDSFL` gave a Kd of 100 µM (Protein scribble homolog, PDZ3 domain (SCRIB, Homo sapiens, UniProt Q14160); binding, fluorescence polarization; peptide, solution; Scribble PDZ3 domain).
Under “normalised SPR binding response”, `QSARYRDTEL` is recorded as 0 normalised RU (human MAGI1-3/6 PDZ construct (MBP fusion); surface plasmon resonance; peptide; concentration not given; higher = stronger binding).
`AINPELLQL` gave a relative affinity of 53.1 (HLA class I histocompatibility antigen, A alpha chain allele A*02:01; HLA-A2 stabilization, peptide titration; peptide, T2; 20 h, 37 °C, with: human β2-microglobulin 100 ng/mL; relative to: HIVpol reference peptide, lower is stronger).
With `colistin` the MIC was 64 µg/mL (Klebsiella pneumoniae; broth microdilution; clinical isolate RKI-No_393/16).
With `QLIMQLMPF` the binding score was 0.2% (HLA class I histocompatibility antigen, A alpha chain allele A*01:01; conformational ELISA; peptide; concentration not given; relative to: positive control peptide, direction not given).
With `Phosphate` the Km was 110 ± 10 µM (Inorganic phosphate transporter PHO84 (PHO84, Saccharomyces cerevisiae, UniProt P25297); uptake, substrate; 10 min, pH 7.4, with: 25 mM NaCl).
`QLIMQLMP` gave a binding score of 0.4% (HLA class I histocompatibility antigen, A alpha chain allele A*02:01; conformational ELISA; peptide; concentration not given; relative to: positive control peptide, direction not given).
The kcat of `CTIL` is reported as 1.3 s⁻¹ (Candida albicans protein farnesyltransferase; peptide farnesylation, substrate; peptide; pH 7.5, enzyme 50 to 100 nM, with: C15-Alk 4 µM).
`cryptolepine` gave an inhibition of 10.9 ± 7.8% (Cyclin-dependent kinase 7 (CDK7, Homo sapiens, UniProt P50613); enzyme activity, inhibitor, ADP-Glo kinase; 10 µM).
For `Tannic acid`, inhibition read “inhibited” (Protein disulfide-isomerase A6 (PDIA6, Homo sapiens, UniProt Q15084); disulfide reductase activity; 20 µM, 15 min, with: di-eosin-GSSG).
`ITQLMPFGSLL` has a binding score of 5.5% (HLA class I histocompatibility antigen, A alpha chain allele A*02:01; conformational ELISA; peptide; concentration not given; relative to: positive control peptide, direction not given).
For `BzATP`, the normalized current was 1.94 and 1.48 and 1.44 (P2X purinoceptor 7 (P2rx7, Rattus norvegicus, UniProt Q64663); ion current, agonist, two-electrode voltage clamp; Xenopus laevis oocytes; 100 µM; relative to: 100 µM ATP current).
`STVQLIMQLM` gave a binding score of 3.6% (HLA class I histocompatibility antigen, A alpha chain allele A*02:01; conformational ELISA; peptide; concentration not given; relative to: positive control peptide, direction not given).
For `phytol`, the remaining activity was 42.8% (DNA cross-link repair 1A protein (DCLRE1A, Homo sapiens, UniProt Q6PJP8); exonuclease activity, inhibitor, fluorescence HTS; 10 µM, 80 min, with: 8 nM 5P-FQ substrate; relative to: high and low controls).

Excerpt of the above:
For `phytol`, the remaining activity was 42.8% (DNA cross-link repair 1A protein (DCLRE1A, Homo sapiens, UniProt Q6PJP8); exonuclease activity, inhibitor, fluorescence HTS; 10 µM, 80 min, with: 8 nM 5P-FQ substrate; relative to: high and low controls).
